Assay results from different studies.
Each numbered part is a random draw from the data of one study; scales do not carry over between parts. pKi: −log10 of the molar value.
Chain of UniProt P11229 (whole entry, looked up): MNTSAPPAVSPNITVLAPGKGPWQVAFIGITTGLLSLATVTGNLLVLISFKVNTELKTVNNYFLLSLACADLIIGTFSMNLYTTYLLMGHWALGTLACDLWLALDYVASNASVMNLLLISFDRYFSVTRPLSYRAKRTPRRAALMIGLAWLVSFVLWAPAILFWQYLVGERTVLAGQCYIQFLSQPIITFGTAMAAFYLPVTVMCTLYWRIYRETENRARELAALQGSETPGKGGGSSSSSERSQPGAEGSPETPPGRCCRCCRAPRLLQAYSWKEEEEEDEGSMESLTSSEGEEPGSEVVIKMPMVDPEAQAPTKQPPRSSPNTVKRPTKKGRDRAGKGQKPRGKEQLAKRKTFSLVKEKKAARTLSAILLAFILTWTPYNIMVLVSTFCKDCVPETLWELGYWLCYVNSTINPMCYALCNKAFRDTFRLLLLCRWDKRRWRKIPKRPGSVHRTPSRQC
Chain of UniProt P35367 (whole entry, looked up): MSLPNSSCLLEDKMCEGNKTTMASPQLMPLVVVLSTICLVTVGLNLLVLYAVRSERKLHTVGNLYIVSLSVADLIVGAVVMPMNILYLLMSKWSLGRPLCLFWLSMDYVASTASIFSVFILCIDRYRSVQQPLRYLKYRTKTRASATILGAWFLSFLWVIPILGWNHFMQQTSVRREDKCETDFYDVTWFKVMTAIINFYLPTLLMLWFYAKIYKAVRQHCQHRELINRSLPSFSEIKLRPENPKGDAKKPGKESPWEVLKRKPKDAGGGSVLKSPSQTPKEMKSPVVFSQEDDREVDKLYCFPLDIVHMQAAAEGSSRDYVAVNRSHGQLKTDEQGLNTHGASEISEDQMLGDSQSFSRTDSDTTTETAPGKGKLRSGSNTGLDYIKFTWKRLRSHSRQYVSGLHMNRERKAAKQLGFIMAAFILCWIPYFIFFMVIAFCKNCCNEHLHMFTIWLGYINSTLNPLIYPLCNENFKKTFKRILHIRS
Chain of UniProt P47898 (whole entry, looked up): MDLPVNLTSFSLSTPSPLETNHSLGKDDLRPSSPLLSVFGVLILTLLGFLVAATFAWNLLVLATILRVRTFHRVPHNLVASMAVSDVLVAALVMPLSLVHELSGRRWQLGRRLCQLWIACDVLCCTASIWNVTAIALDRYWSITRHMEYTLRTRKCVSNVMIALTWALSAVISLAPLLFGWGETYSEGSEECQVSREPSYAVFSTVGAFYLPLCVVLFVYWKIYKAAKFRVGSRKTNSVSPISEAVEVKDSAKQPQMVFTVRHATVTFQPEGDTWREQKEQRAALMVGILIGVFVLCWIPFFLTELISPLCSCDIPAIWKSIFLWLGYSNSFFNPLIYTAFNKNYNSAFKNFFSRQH
Chain of UniProt P62344 (whole entry, looked up): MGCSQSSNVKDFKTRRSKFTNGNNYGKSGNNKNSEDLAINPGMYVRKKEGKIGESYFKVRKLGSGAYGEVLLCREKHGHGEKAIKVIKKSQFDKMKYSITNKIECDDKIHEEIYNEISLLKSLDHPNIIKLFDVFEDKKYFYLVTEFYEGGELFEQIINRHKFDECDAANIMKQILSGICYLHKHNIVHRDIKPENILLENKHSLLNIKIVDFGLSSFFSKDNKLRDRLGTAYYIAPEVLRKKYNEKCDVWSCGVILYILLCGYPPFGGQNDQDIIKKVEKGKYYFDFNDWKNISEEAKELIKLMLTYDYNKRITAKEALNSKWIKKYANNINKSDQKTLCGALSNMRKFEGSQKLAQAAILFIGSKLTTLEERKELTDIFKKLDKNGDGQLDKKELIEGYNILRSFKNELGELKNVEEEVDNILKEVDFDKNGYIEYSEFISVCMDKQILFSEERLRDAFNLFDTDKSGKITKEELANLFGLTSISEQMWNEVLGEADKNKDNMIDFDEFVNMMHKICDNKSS

Sample 1
Cell line: A-375
Concentration: 100 µM
Time: 18 h
SMILES | viability
CC(O)(CS(=O)(=O)c1ccc(F)cc1)C(=O)Nc1ccc(C#N)c(C(F)(F)F)c1 (stereo not shown) | 60.3%
C=C1CC[C@@]2(O)[C@H]3Cc4ccc(O)c5c4[C@@]2(CCN3CC2CC2)[C@H]1O5 | 103%
C=CC[C@]1(O)CC[C@H]2[C@@H]3CCC4=CCCC[C@@H]4[C@H]3CC[C@@]21C | 8.16%
Cc1cccc(C)c1N=C1NCCCS1 | 99.4%

Sample 2
Cell line: HH
Concentration: 2 µM
Time: 48 h
Reference: untreated
Structure (SMILES) | viability [%]
C/C(O)=C(\C#N)C(=O)Nc1cc(Br)ccc1Br | 126
NC(=O)Nc1sc(-c2ccc(F)cc2)cc1C(N)=O | 33.4
N#CC(C#N)=Cc1ccc(O)c(O)c1 | 102
CC(C)(C)c1cc(C=C(C#N)C#N)cc(C(C)(C)C)c1O | 80.1

Single results of other studies
Structure (SMILES) | target or system | test | setting | how to read | quantity | result
O=C1CCc2cc(Nc3cc(OC4CCOCC4)c([N+](=O)[O-])cc3Cl)ccc2N1 | CDPK1 (Plasmodium falciparum, UniProt P62344) | cell-free assay, competition with immobilised ligand | 1 µM | – | remaining binding | 100%
C[C@]12CC[C@H](O)C[C@@H]1CC[C@@H]1[C@@H]2CC[C@]2(C)C(=O)CC[C@@H]12 | mouse MPNST tumor cells | high-content immunofluorescence imaging, measured: nuclear SOX9 | 10 µM, 12 h, mean of 2 replicates | reference: DMSO control, higher = more nuclear SOX9 | nuclear SOX9 intensity | 108 % of DMSO
COc1cccc(CNC(=O)c2nc3scc(COCc4ccc(C(=O)O)cc4)c3c(=O)[nH]2)c1 | CHRM1 (Homo sapiens, UniProt P11229) | binding, radioligand binding | – | – | pKi | < 5.00
N#CC1(c2ccccn2)CCN(Cc2cc(C(=O)O)c(=O)n3ccccc23)CC1 | HTR5A (Homo sapiens, UniProt P47898) | cell-free assay | 10 µM | – | inhibition | -20%
Cn1cncc1[C@](O)(COc1ccc(C#N)cc1-c1ccc(OC(F)(F)F)cc1)c1ccc(C#N)cc1 | HRH1 (Homo sapiens, UniProt P35367) | binding, radioligand binding | – | – | pKi | < 5.00
